# Results gathered from unrelated publications.
# Each line is one published result; not all experiments were run side by side. “And” joins repeats or separate records; there may be more than shown. ± marks the error that the study gave.
# Organism: Plasmodium falciparum
SMILES,test,test system,conditions,IC50
COc1cc2c(cc1O)[C@@H](Cc1ccc(O)cc1)[N+](C)(C)CC2,"parasite growth, inhibitor, SYBR Green I",3D7,,3940 nM
CC1=C(Cc2cn(CCN3CCNCC3)nn2)C(=O)c2ccccc2C1=O,"parasite growth, [3H]-hypoxanthine incorporation",NF54,72 h,inactive
CCN(CC)CCCC(C)Nc1ccnc2cc(Cl)ccc12 (stereo not drawn),"asexual parasite proliferation, SYBR Green I fluorescence","clinical isolate SB_05, Mozambique",,9.8 ± 0.19 nM
N=C(N)NCCCCC(=O)Nc1cc(C(F)(F)F)cc(NC(=O)c2cc(C(=O)Nc3cc(C(F)(F)F)cc(NC(=O)CCCCNC(=N)N)c3O[C@@H]3CCNC3)ncn2)c1O[C@@H]1CCNC1,"parasite growth, stage-specific treatment",,"12 h, early to late ring stage",2670 ± 520 nM
COC1=CC(c2ccc[nH]2)=N/C1=C\c1[nH]c(-c2ccc(OC)cc2)cc1-c1ccc(OC)cc1,"parasite growth, SYBR Green fluorescence","Dd2 (multidrug-resistant), asexual blood stage",72 h,20.6 nM
CC1=C(Cc2cn(Cc3ccccc3)nn2)C(=O)c2ccccc2C1=O,"parasite growth, [3H]hypoxanthine incorporation",NF54,72 h,890 nM
O=C(O)c1ccc(-n2nc(-c3ccccc3O)nc2-c2ccccc2O)cc1,"parasite growth, inhibitor, SYBR Green I",3D7,,38400 nM
CCC1=C(CC)/C(=C/c2cc(-c3ccc(OC(F)(F)F)cc3)c(C)[nH]2)N=C1c1ccc[nH]1,"parasite growth, SYBR Green fluorescence","Tm90-C2B (atovaquone-resistant), asexual blood stage",72 h,> 2500 nM
Oc1cccc(C(Nc2nccs2)c2ccc3cccnc3c2O)c1 (stereo not drawn),"parasite growth, inhibitor, SYBR Green I",3D7,,388 nM
CCc1nc(N)nc(N)c1-c1ccc(Cl)cc1,cell growth,"erythrocytes, Dd2",low-folate medium,2290 ± 470 nM
O=C1C(O)=C([C@H]2CC[C@H](c3ccc(Cl)cc3)CC2)C(=O)c2ccccc21,growth,3D7,96 h,3 ± 3 nM
CCN(CC)CCCC(C)Nc1ccnc2cc(Cl)ccc12 (stereo not drawn),parasite growth,"3D7, artemisinin-sensitive",72 h,20.1 ± 1.4 nM
CC(=O)O[C@H](C)C(=O)CCCCCCC(=O)Nc1ccccc1,[3H]-hypoxanthine incorporation,,,40100 nM
COc1nc2ccc(Br)cc2cc1[C@@H](c1ccccc1)[C@@](O)(CCN(C)C)c1cccc2ccccc12,"parasite growth, stage-specific treatment",,"12 h, early to late ring stage",2970 ± 90 nM
CC1(C)N=C(N)N=C(N)N1c1ccc(Cl)cc1,growth,3D7,72 h,8 ± 1 nM
CC1=C(Cn2cc(CN(Cc3ccccc3)Cc3ccccc3)nn2)C(=O)c2ccccc2C1=O,"parasite growth, [3H]hypoxanthine incorporation",NF54,72 h,1910 nM
N=C(CC(O)c1nc2ccccc2c2ccc(Br)cc12)Nc1ccc(F)cc1 (stereo not drawn),"parasite growth, HRP2 ELISA",clinical isolates from Gabon,"ex vivo, range over isolates",2.8 to 117 nM
N=C(N)c1ccc(OCCCCCOc2ccc(C(=N)N)cc2)cc1,"parasite growth, inhibitor, SYBR Green I",3D7,,3.2 nM
N=C(CC(O)c1ccnc2c1ccc1ccccc12)Nc1ccc(F)cc1 (stereo not drawn),"parasite growth, HRP2 ELISA","Dd2 multidrug-resistant, asexual blood stages",3 days,531 ± 95.3 nM
O[C@@H](CN[C@H](COCC1CC1)Cc1ccccc1)c1cc(Cl)cc2c1-c1ccc(Cl)cc1C2,,3D7,48 h,19.1 ± 9.9 nM
CCC1=C(CC)/C(=C/NC23CC4CC(CC(C4)C2)C3)N=C1c1cc2ccccc2[nH]1,"parasite growth, SYBR Green I fluorescence","D6, chloroquine-sensitive",72 h,70.2 nM
O=C(CC1NCCCC1O)Cn1cnc2cc(Br)c(Cl)cc2c1=O (stereo not drawn),parasite growth,conditional knockdown control line,"72 h, with: 3 nM anhydrotetracycline",0.5 nM
Cc1[nH]c(/C=C2\N=C(c3ccc[nH]3)C=C2OCc2ccccc2)cc1Cc1ccc(Cl)cc1,"parasite growth, SYBR Green fluorescence","Dd2 (multidrug-resistant), asexual blood stage",72 h,10.3 nM
CCCCCCCCNC[C@@H](O)c1cc(Cl)cc2c1-c1ccc(Cl)cc1C2,,3D7,48 h,4.5 ± 0.2 nM
CCC1=C(CC)/C(=C/c2[nH]c(Cc3ccc(OC(F)(F)F)cc3)cc2Cc2ccc(OC(F)(F)F)cc2)N=C1c1ccc[nH]1,"parasite growth, SYBR Green fluorescence","Tm90-C2B (atovaquone-resistant), asexual blood stage",72 h,1080 nM
CCCN(CCc1cccs1)[C@H]1CCc2c(O)cccc2C1,SYBR Green I,3D7,"48 h, ring stage",> 10000 nM
CCC1=C(C)/C(=C/NC23C[C@H]4C[C@@H](C2)C[C@@H](C3)C4)N=C1c1ccc(CC)[nH]1,"parasite growth, SYBR Green I fluorescence","D6, chloroquine-sensitive",72 h,< 1 nM
COC1=CC(c2ccc[nH]2)=N/C1=C\c1[nH]c(C)cc1Cc1ccc(OC(F)(F)F)cc1,"parasite growth, SYBR Green fluorescence","Dd2 (multidrug-resistant), asexual blood stage",72 h,1.85 nM
O[C@H](CNCCN1CCN(C(c2ccccc2)c2ccccc2)CC1)c1cc(Cl)cc2c1-c1ccc(Cl)cc1C2,,3D7,48 h,19.5 ± 2 nM
CC1=C(Cn2cc(CN3CCNCC3)nn2)C(=O)c2ccccc2C1=O,"parasite growth, [3H]hypoxanthine incorporation",NF54,72 h,> 10000 nM
Nc1ccc(S(=O)(=O)c2ccc(N)cc2)cc1,cell growth,"erythrocytes, HB3",low-folate medium,26500 ± 2460 nM
O=C1Nc2ccc(Cl)cc2C12NCCCCc1c2[nH]c2ccccc12 (stereo not drawn),"parasite growth, [3H]hypoxanthine incorporation",NF54,,> 1000 nM
COC1=CC(c2ccc[nH]2)=N/C1=C\c1[nH]c(-c2ccccc2)cc1-c1ccccc1,"parasite growth, SYBR Green fluorescence","Tm90-C2B (atovaquone-resistant), asexual blood stage",72 h,18.9 nM
COc1ncnc(NS(=O)(=O)c2ccc(N)cc2)c1OC,cell growth,"erythrocytes, 3D7",low-folate medium,426000 ± 85000 nM
CCN(CC)CCCC(C)Nc1ccnc2cc(Cl)ccc12 (stereo not drawn),,3D7,48 h,13.8 ± 5.6 nM
CC(C)(C)NC(=O)[C@@H]1CN(Cc2cnc3occc3c2)CCN1C[C@@H](O)C[C@@H](Cc1ccccc1)C(=O)N[C@H]1c2ccccc2C[C@H]1O,"parasite growth, stage-specific treatment",,"12 h, early to late ring stage",> 10000 nM
"COc1cc(C)c(-c2ccc(O)c3c2C[C@@H](C)N[C@@H]3C)c2cccc(O)c12 (single isomer, unassigned)","asexual parasite proliferation, SYBR Green I fluorescence",HB3,,30.3 ± 3.8 nM
CCC1=C(CC)/C(=C/c2cc(Cc3ccc(Cl)cc3)c(C)[nH]2)N=C1c1ccc[nH]1,"parasite growth, SYBR Green fluorescence","Dd2 (multidrug-resistant), asexual blood stage",72 h,262 nM
O[C@H](CN1CCN(C(c2ccccc2)c2ccccc2)CC1)c1cc(Cl)cc2c1-c1ccc(Cl)cc1C2,,3D7,48 h,25.6 ± 7.9 nM
Cc1[nH]c(/C=C2\N=C(c3ccc[nH]3)C=C2OCc2ccccc2)cc1Cc1ccc(OC(F)(F)F)cc1,"parasite growth, SYBR Green fluorescence","Dd2 (multidrug-resistant), asexual blood stage",72 h,10.4 nM
CCN(CC)Cc1cc(Nc2ccnc3cc(Cl)ccc23)ccc1O,,"3D7, supernatant of treated uninfected erythrocytes","72 h, 500 nM preincubated 0.16 h",3.6 nM
CCN(CC)CCCC(C)Nc1ccnc2cc(Cl)ccc12 (stereo not drawn),"parasite growth, SYBR Green I",3D7,,17.1 nM and 13.5 nM
CC1=C(Cc2cn(CCO)nn2)C(=O)c2ccccc2C1=O,"parasite growth, [3H]hypoxanthine incorporation",NF54,72 h,1850 nM
CCCCCCCNC[C@H](O)c1cc(Cl)cc2c1-c1ccc(Cl)cc1C2,,3D7,48 h,0.9 ± 0.01 nM
NC(N)=Nc1ccc(-c2ccc(-c3ccc(N=C(N)N)c(Cl)c3)o2)cc1Cl,"parasite growth, inhibitor, SYBR Green I",3D7,,330 nM
COc1cc(CO)c(-c2ccc3c(c2O)[C@@H](C)N[C@H](C)C3)c2cccc(O)c12,"asexual parasite growth, SYBR Green I","clinical isolate SB_04, Malawi",,2.5 ± 0.11 nM
CCCCNC[C@@H](O)c1cc(Cl)cc2c1-c1ccc(Cl)cc1C2,,3D7,48 h,23.3 ± 3.3 nM
CC1=C(Cn2cc(CNC(=O)OC(C)(C)C)nn2)C(=O)c2ccccc2C1=O,"parasite growth, [3H]hypoxanthine incorporation",NF54,72 h,> 10000 nM

# Some of these lines once more:
SMILES,test,test system,conditions,IC50
O=C(O)c1ccc(-n2nc(-c3ccccc3O)nc2-c2ccccc2O)cc1,"parasite growth, inhibitor, SYBR Green I",3D7,,38400 nM
CCC1=C(CC)/C(=C/c2cc(-c3ccc(OC(F)(F)F)cc3)c(C)[nH]2)N=C1c1ccc[nH]1,"parasite growth, SYBR Green fluorescence","Tm90-C2B (atovaquone-resistant), asexual blood stage",72 h,> 2500 nM
Oc1cccc(C(Nc2nccs2)c2ccc3cccnc3c2O)c1 (stereo not drawn),"parasite growth, inhibitor, SYBR Green I",3D7,,388 nM
